Experimental data gathered from unrelated publications.
± gives the spread as reported.

Compound = Cc1cc(C)c(N2CCN(c3c(C)cc(C)cc3C)C2=[Se])c(C)c1.[Cl][Au]; cell line = LoVo MDR; assay = MTT; how to read = reference: LoVo MDR over LoVo; measurement = resistance factor; result = 1.9
Compound = COc1ccc(Nc2c3c(nc4ccccc24)CCC(C)C3)nc1 (stereo not drawn); cell line = SH-SY5Y; assay = MTT; setting = 50 µM, 1 h pretreatment, 10% FBS, with: H2O2; measurement = viability; result = 56.8 ± 5.51%
Compound = CC/C=C\C/C=C\C/C=C\C/C=C\C/C=C\C/C=C\CCC(=O)Nc1ccn(C2OC(CO)C(O)C2(F)F)c(=O)n1 (stereo not drawn); cell line = SK-MEL-28; assay = NCI60 screen; measurement = CC50; result = 53.8 µM
Compound = c1cncc(Nc2c3c(nc4ccccc24)CCCC3)c1; cell line = SH-SY5Y; assay = MTT; setting = 50 µM, 1 h pretreatment, 10% FBS, with: H2O2; measurement = viability; result = 61.5 ± 0.64%
Compound = COc1ccc(CNc2c(NC3CCN(Cc4ccccc4)CC3)c(=O)c2=O)cc1; cell line = SH-SY5Y; assay = neuroprotection, MTT; setting = 12.5 µM, 24 h pretreatment, with: H2O2 650 µM for 4 h; measurement = cell survival; result = 54.6%
Compound = [N]#[Os]([Cl])([Cl])[Cl].c1cnc2c(c1)ccc1cccnc12; cell line = A2780; assay = immunoblot, item: p21 and BAX; setting = concentration not given; measurement = protein level; result = increased
Compound = COC(=O)C1=CO[C@@H](O)[C@@H]2C(Cn3cc(CON4C(=O)c5ccccc5C4=O)nn3)=CC[C@H]12; cell line = SK-N-SH; assay = neuroprotection, MTT; setting = 0.075 µM, 24 h, with: 250 µM H2O2; measurement = viability; result = 52 ± 1.8%
Compound = CC(C)C[C@@H](NC(=O)CCNc1ccc([N+](=O)[O-])c2nonc12)C(=O)N[C@H](CC(C)C)C(=O)N[C@H](CC(C)C)C(=O)N[C@H](CC(C)C)C(=O)N[C@H](Cc1ccc(OP(=O)(O)O)cc1)C(=O)O; cell line = A2780cis; assay = MTT; setting = 200 µM, 24 h; measurement = viability; result = > 60%
Compound = COC(=O)C1=CO[C@@H](OC(C)=O)[C@@H]2C(Cn3cc(CCBr)nn3)=CC[C@H]12; cell line = SK-N-SH; assay = neuroprotection, MTT; setting = 0.15 µM, 24 h, with: 250 µM H2O2; measurement = viability; result = 74.8 ± 0.6%
Compound = CCCc1cc(OC)c2c(c1OC)OCO2; cell line = SK-OV-3; assay = cell growth or viability, MTT; setting = 72 h; measurement = GI50; result = > 250 µM
Compound = CCOP(=O)(OCC)OCCCCOC(=O)CC1=C(C)C(=Cc2ccc([S+](C)[O-])cc2)c2ccc(F)cc21 (stereo not drawn); cell line = A549 EGFR-knockdown; assay = Annexin V/PI staining; setting = 95 µM, 24 h; how to read = reference: mock-transfected cells; measurement = apoptosis increase; result = > 2 fold
Compound = CC(C)CC(O)(CC(C)C)c1cn(C(=O)N2CCCC2)nn1; cell line = mouse T-cells; assay = N-terminal labeled proteins, N-terminal enrichment proteomics, item: UQCRH; setting = 1 nM, 6 h; how to read = reference: DMSO; measurement = SILAC ratio; result = 2.27 ± 0.06
Compound = CCn1cc(-c2ccn3c(-c4ccc(-c5nnc(C)o5)cc4)cnc3c2)cn1; cell line = human SAOS-2; assay = SIK substrate phosphorylation, item: HDAC4/5, CRTC2; setting = concentration not given; measurement = activity; result = inactive
Compound = CCOC(=O)c1ccc(NC(=S)Nc2ccc3c(c2)C(C)(C)CC(C)(C)S3)cc1; cell line = 786-O; assay = MTS; setting = range over 1 to 12.5 µM, 48 h; measurement = maximum growth inhibition; result = 54.1 ± 13.7%
Compound = COC(=O)C1=CO[C@@H](OC(C)=O)[C@@H]2C(Cn3cc(CN4C(=O)c5ccccc5C4=O)nn3)=CC[C@H]12; cell line = SK-N-SH; assay = neuroprotection, MTT; setting = 0.3 µM, 24 h, with: 250 µM H2O2; measurement = viability; result = 56.8 ± 1.3%
Compound = Cc1cc(O)cc(-c2nc(Nc3cc(C(F)(F)F)cc(C(F)(F)F)c3)ncc2-c2ccnc(Cl)c2)c1; cell line = LS174T; setting = 10 µM, 72 h; how to read = reference: untreated cells; measurement = viability decrease; result = > 50%
Compound = Cc1cc(C)c(-n2ccn(-c3c(C)cc(C)cc3C)c2=[Se])c(C)c1.[Cl][Au]; cell line = LoVo MDR; assay = MTT; how to read = reference: LoVo MDR over LoVo; measurement = resistance factor; result = 1.9
Compound = N=C(N)Nc1ccc(-c2nc3ccc(-c4ccc5nc(-c6ccc(NC(=N)N)cc6)[nH]c5c4)cc3[nH]2)cc1; cell line = wild-type fibroblasts; setting = concentration not given; measurement = MBNL1 exon 5 inclusion; result = no effect
Compound = CN1C(=O)C2(Cc3ccc(CC45SSC(CO)(C(=O)N4C)N(C)C5=O)cc3)SSC1(CO)C(=O)N2C (racemic); cell line = MCF7; assay = microarray; setting = 600 nM, of 43 deferoxamine-induced genes ≥4-fold upregulated ≥2-fold, with: deferoxamine; measurement = number of upregulated genes; result = 2
Compound = CC=C(C)C(=O)OC1C2C3(C)CCC(OC4CC(OC)C(OC5OC(C)C(OC6OC(CO)C(O)C(O)C6O)C(OC)C5O)C(C)O4)CC3CCC23OC32CCC(C(C)=O)C2(C)C1OC(C)=O (stereo not drawn); cell line = MDA435/LCC6-MDR1; assay = cell growth, MDR reversal, SRB; setting = 10 µM, with: doxorubicin; how to read = reference: doxorubicin alone over combination; measurement = fold reversal of IC50; result = 1
Compound = COC(=O)C1=CO[C@@H](OC(C)=O)[C@@H]2C(Cn3cc(COCc4ccc(OC)c(OC)c4)nn3)=CC[C@H]12; cell line = SK-N-SH; assay = neuroprotection, MTT; setting = 0.15 µM, 24 h, with: 250 µM H2O2; measurement = viability; result = 71.7 ± 0.06%
Compound = CC1OC2OC3C4=C(OC3(C)C12O)C(=O)c1c(O)cccc1C4=O (stereo not drawn); cell line = MDA-MB-231 and HFF; assay = MTT; how to read = reference: CC50 HFF over EC50 MDA-MB-231; measurement = selectivity index; result = 3.17
Compound = CC[C@H](C)[C@H](NC(=O)CNC(=O)[C@H](CCCCN)NC(=O)[C@H](CO)NC(=O)[C@H](CCCCN)NC(=O)CNC(=O)[C@H](CC(=O)O)NC(=O)[C@H](CCCCN)NC(=O)[C@H](CO)NC(=O)[C@@H](NC(=O)[C@H](CC(C)C)NC(=O)[C@H](CCCNC(=N)N)NC(=O)[C@@H](NC(=O)[C@H](CCC(=O)O)NC(=O)[C@H](C)NC(=O)[C@H](CCCNC(=N)N)NC(=O)[C@H](CCCNC(=N)N)NC(=O)[C@H](CCCNC(=N)N)NC(=O)[C@H](CCC(N)=O)NC(=O)[C@H](CCCNC(=N)N)NC(=O)[C@H](CCCNC(=N)N)NC(=O)[C@H](CCCCN)NC(=O)[C@H](CCCCN)NC(=O)[C@H](CCCNC(=N)N)NC(=O)CNC(=O)[C@@H](N)Cc1ccc(O)cc1)[C@@H](C)CC)C(C)C)C(=O)N[C@@H](C)C(=O)N[C@@H](Cc1ccc(O)cc1)C(=O)N[C@H](C(=O)N[C@@H](CCC(=O)O)C(=O)N[C@@H](Cc1ccccc1)C(=O)N[C@@H](CCCCN)C(=O)O)[C@@H](C)CC; cell line = HEK293; assay = RT-PCR, item: GADD45A; setting = concentration not given; measurement = mRNA level; result = no effect
Compound = COc1cc(C)c(OC)c(OC)c1OC; cell line = SK-OV-3; assay = cell growth or viability, MTT; setting = 72 h; measurement = GI50; result = > 250 µM
Compound = c1ccc2ncc(Nc3c4c(nc5ccccc35)CCCC4)cc2c1; cell line = SH-SY5Y; assay = MTT; setting = 50 µM, 1 h pretreatment, 10% FBS, with: H2O2; measurement = viability; result = 52 ± 2.26%
Compound = F[P-](F)(F)(F)(F)F.F[P-](F)(F)(F)(F)F.[Ru+2].c1ccc(-c2ccccn2)nc1.c1ccc(-c2ccccn2)nc1.c1csc(-c2cc3cccnc3c3ncccc23)c1; cell line = SK-MEL-28; assay = cell viability; setting = visible light; how to read = reference: dark EC50 over light EC50; measurement = phototherapeutic index; result = > 216
Compound = CCC(C)C(=O)OC1C2C3(C)CCC(OC4CC(OC)C(OC5OC(C)C(O)C(OC)C5O)C(C)O4)CC3CCC23OC32CCC(C(C)=O)C2(C)C1OC(C)=O (stereo not drawn); cell line = MDA435/LCC6-MDR1; assay = cell growth, MDR reversal, SRB; setting = 10 µM, with: doxorubicin; how to read = reference: doxorubicin alone over combination; measurement = fold reversal of IC50; result = 6
Compound = CC1=CCC23OC2(C)CCC2C(C[N+](C)(C)C)C(=O)OC2C13.[I-] (stereo not drawn); cell line = SR; assay = cell growth or viability, SRB; setting = 8.3 µM; measurement = inhibition; result = 89.6%
Compound = COC(=O)C1=CO[C@@H](OC(C)=O)[C@@H]2C(Cn3cc(CCO)nn3)=CC[C@H]12; cell line = SK-N-SH; assay = neuroprotection, MTT; setting = 0.3 µM, 24 h, with: 250 µM H2O2; measurement = viability; result = 71.2 ± 2.8%
Compound = CC(C)=CCC1=C([O-])C(=O)c2ccccc2C1=O.CC(C)=CCC1=C([O-])C(=O)c2ccccc2C1=O.[Zn+2].c1ccc(-c2ccnc3c2ccc2c(-c4ccccc4)ccnc23)cc1; cell line = MRC5 and A2780; assay = MTT; setting = 24 h; how to read = reference: IC50 MRC5 over IC50 A2780; measurement = selectivity index; result = 5.4

Repeated from above:
Compound = N=C(N)Nc1ccc(-c2nc3ccc(-c4ccc5nc(-c6ccc(NC(=N)N)cc6)[nH]c5c4)cc3[nH]2)cc1; cell line = wild-type fibroblasts; setting = concentration not given; measurement = MBNL1 exon 5 inclusion; result = no effect
Compound = Cc1cc(O)cc(-c2nc(Nc3cc(C(F)(F)F)cc(C(F)(F)F)c3)ncc2-c2ccnc(Cl)c2)c1; cell line = LS174T; setting = 10 µM, 72 h; how to read = reference: untreated cells; measurement = viability decrease; result = > 50%
Compound = COc1cc(C)c(OC)c(OC)c1OC; cell line = SK-OV-3; assay = cell growth or viability, MTT; setting = 72 h; measurement = GI50; result = > 250 µM
Compound = CC1OC2OC3C4=C(OC3(C)C12O)C(=O)c1c(O)cccc1C4=O (stereo not drawn); cell line = MDA-MB-231 and HFF; assay = MTT; how to read = reference: CC50 HFF over EC50 MDA-MB-231; measurement = selectivity index; result = 3.17
